Assay results gathered from unrelated publications.
± marks the error that the study gave.
Cell line: HepG2

`CCCCCCCC(=O)NC(C)(C)C(=O)NCC(=O)N[C@@H](CC(C)C)C(=O)NC(C)(C)C(=O)NCC(=O)NCC(=O)N[C@H](C(=O)NC(C)(C)C(=O)NCC(=O)N[C@H](C(=O)N[C@H](CO)CC(C)C)[C@@H](C)CC)C(C)C` has an EC50 of over 25 µM (cytotoxicity, MTS; 48 h).
With `CCC(C)C1NC(=O)C(Cc2ccccc2)NC(=O)C(CCCCCC(=O)C2CO2)NC(=O)C2CCCCN2C1=O` (stereo not drawn) the EC50 was 12 ± 1 µM (cytotoxicity, MTS; 48 h).
`CCOc1cccc2c1[O][Pt-2]1([Cl])[N+](=C2)Cc2cccc[n+]21` (stereo not drawn) — result for “cells in G0/G1 phase”: 21 to 27% (flow cytometry PI; concentration not given, 24 h).
`CC(=O)N[C@H](C(=O)N[C@@H](C)C(=O)N[C@@H](CCC(N)=O)C(=O)N[C@@H](CCC(N)=O)C(=O)N[C@@H](C)C(=O)N[C@@H](C)C(=O)N[C@@H](CC(N)=O)C(=O)N[C@H](C(=O)N[C@@H](C)C(=O)N[C@@H](C)C(=O)N[C@H](C(=O)N[C@@H](CC(C)C)C(=O)N[C@@H](CCCCN)C(=O)N[C@@H](CC(N)=O)C(=O)N[C@@H](CO)C(=O)N[C@@H](CCCNC(=N)N)C(=O)N[C@@H](CO)C(=O)N[C@@H](CC(C)C)C(=O)NCC(=O)N[C@@H](CCC(=O)O)C(=O)N[C@@H](CC(N)=O)C(=O)N[C@@H](CC(=O)O)C(=O)N[C@@H](CC(=O)O)C(=O)NCC(=O)N[C@@H](CC(N)=O)C(=O)N[C@@H](CC(N)=O)C(=O)N[C@@H](CCC(=O)O)C(=O)N[C@@H](CC(=O)O)C(=O)N[C@@H](CC(N)=O)C(=O)N[C@@H](CCC(=O)O)C(=O)N[C@@H](CCCCN)C(=O)N[C@@H](CC(C)C)C(=O)N[C@@H](CCCNC(=N)N)C(N)=O)[C@@H](C)O)C(C)C)C(C)C` — result for ATPase activity: “decreased” (concentration not given; reference: control).
`CC[C@H](C)[C@H](NC(=O)[C@H](C)NC(=O)[C@@H]1CCCN1C(=O)C(C)(C)NC(=O)[C@H](CC(C)C)NC(=O)[C@H](CCC(N)=O)NC(=O)[C@@](C)(CC)NC(C)=O)C(=O)NC(C)(C)C(=O)N1CCC[C@H]1C(=O)NC(C)(C)C(=O)N[C@@H](CC(C)C)C(=O)NC(C)(C)C(=O)N1CCC[C@H]1C(=O)N[C@H](CO)CC(C)C` has an EC50 of over 25 µM (cytotoxicity, MTS; 48 h).
`C[C@@H](O)[C@H](NC(=O)[C@H](CCCCN)NC(=O)CCC(=O)O)C(=O)NCC(=O)N[C@@H](CC(=O)O)C(=O)N[C@@H](CCC(=O)O)C(=O)N[C@@H](CCCCN)C(=O)N[C@@H](CCCCN)C(=O)NCC(=O)NCC(=O)N[C@@H](Cc1ccc(O)cc1)C(=O)NCC(=O)N[C@@H](CCCNC(=N)N)C(=O)N[C@@H](CCCCN)C(=O)N[C@@H](CCCCN)C(=O)N[C@@H](CCCNC(=N)N)C(=O)N[C@@H](CCCNC(=N)N)C(=O)N[C@@H](CCC(N)=O)C(=O)N[C@@H](CCCNC(=N)N)C(=O)N[C@@H](CCCNC(=N)N)C(=O)N[C@@H](CCCNC(=N)N)C(N)=O` — result for “caspase-3 positive cells”: 0.9% (apoptosis, flow cytometry; 40 µM, 16 h).
For `CC[C@H](C)[C@H](NC(=O)[C@H](CO)NC(=O)[C@@H]1CCCN1C(=O)C(C)(C)NC(=O)[C@H](CC(C)C)NC(=O)[C@H](CC(N)=O)NC(=O)[C@@](C)(CC)NC(C)=O)C(=O)NC(C)(C)C(=O)N1CCC[C@H]1C(=O)N[C@](C)(CC)C(=O)N[C@@H](CC(C)C)C(=O)NC(C)(C)C(=O)N1CCC[C@H]1C(=O)N[C@H](CO)CC(C)C`, the EC50 was over 25 µM (cytotoxicity, MTS; 48 h).
`CC[C@@]1(O)C(=O)OCc2c1cc1n(c2=O)Cc2cc3cc(OC(=O)CCCC(=O)NCC(=O)N[C@@H](Cc4ccccc4)C(=O)N[C@@H](Cc4ccccc4)C(=O)N[C@@H](Cc4ccc(OP(=O)(O)O)cc4)C(=O)NCCSSCCNC(=O)CCC(=O)N[C@@H](CCC(=O)O)C(=O)N[C@@H](CCCNC(=N)N)C(=O)NCC(=O)N[C@@H](CC(=O)O)C(=O)O)ccc3nc2-1` gave a cellular uptake of 20 fold (flow cytometry; 100 µM, 4 h; reference: free HCPT).
`O=C1/C(=C/c2ccc3c(c2)OCCO3)SC(=S)N1[C@@H]1O[C@H](CO)[C@@H](O)[C@H](O)[C@H]1O` — result for “mRNA fold change”: 1.13 fold (item: Casp-8; IC50, 48 h; reference: untreated).
The EC50 of `CCCCCCCC(=O)NC(C)(C)C(=O)NCC(=O)N[C@@H](CC(C)C)C(=O)NC(C)(C)C(=O)NCC(=O)N[C@H](C(=O)N[C@H](CO)CC(C)C)C(C)C` is reported as over 25 µM (cytotoxicity, MTS; 48 h).
For `CC(=O)N[C@H](C(=O)N[C@@H](C)C(=O)N[C@@H](CCC(N)=O)C(=O)N[C@@H](CCC(N)=O)C(=O)N[C@@H](C)C(=O)N[C@@H](C)C(=O)N[C@@H](CC(N)=O)C(=O)N[C@H](C(=O)N[C@@H](C)C(=O)N[C@@H](C)C(=O)N[C@H](C(=O)N[C@@H](CC(C)C)C(=O)N[C@@H](CCCCN)C(N)=O)[C@@H](C)O)C(C)C)C(C)C`, “mitochondrial membrane potential” read “decreased” (JC-1; concentration not given).
`CC(=O)N[C@@H](CCCCN)C(=O)N[C@H](C(=O)NCC(=O)N[C@@H](CC(=O)O)C(=O)N[C@@H](CCC(=O)O)C(=O)N[C@@H](CCCCN)C(=O)N[C@@H](CCCCN)C(=O)NCC(=O)NCC(=O)N[C@@H](Cc1ccc(O)cc1)C(=O)NCC(=O)N[C@@H](CCCNC(=N)N)C(=O)N[C@@H](CCCCN)C(=O)N[C@@H](CCCCN)C(=O)N[C@@H](CCCNC(=N)N)C(=O)N[C@@H](CCCNC(=N)N)C(=O)N[C@@H](CCC(N)=O)C(=O)N[C@@H](CCCNC(=N)N)C(=O)N[C@@H](CCCNC(=N)N)C(=O)N[C@@H](CCCNC(=N)N)C(N)=O)[C@@H](C)O` — result for “caspase-3 positive cells”: 1.07% (apoptosis, flow cytometry; 40 µM, 16 h).
With `CCCCCCCC(=O)NC(C)(C)C(=O)NCC(=O)N[C@@H](CC(C)C)C(=O)NC(C)(C)C(=O)NCC(=O)NCC(=O)N[C@@H](CC(C)C)C(=O)NC(C)(C)C(=O)NCC(=O)N[C@@H](CC(C)C)C(=O)N[C@H](CO)CC(C)C` the EC50 was over 25 µM (cytotoxicity, MTS; 48 h).
`CC[C@@]1(O)C(=O)OCc2c1cc1n(c2=O)Cc2cc3cc(OC(=O)CCCC(=O)NCC(=O)N[C@@H](Cc4ccccc4)C(=O)N[C@@H](Cc4ccccc4)C(=O)N[C@@H](Cc4ccc(O)cc4)C(=O)NCCSSCCNC(=O)CCC(=O)N[C@@H](CCC(=O)O)C(=O)N[C@@H](CCCNC(=N)N)C(=O)NCC(=O)N[C@@H](CC(=O)O)C(=O)O)ccc3nc2-1` has an apoptotic cells of about 30% (annexin V/PI flow cytometry; 200 nM, 48 h).
`COc1cc2c3c4c1Oc1cc5c(cc1O4)[C@H](Cc1ccc(OCCCN(C)C)c(c1)Oc1ccc(cc1)C[C@@H]3N(C)CC2)N(C)CC5` has a selectivity ratio of over 75 (reference: cytotoxicity over antimalarial IC50).

Repeated from above:
`CC(=O)N[C@H](C(=O)N[C@@H](C)C(=O)N[C@@H](CCC(N)=O)C(=O)N[C@@H](CCC(N)=O)C(=O)N[C@@H](C)C(=O)N[C@@H](C)C(=O)N[C@@H](CC(N)=O)C(=O)N[C@H](C(=O)N[C@@H](C)C(=O)N[C@@H](C)C(=O)N[C@H](C(=O)N[C@@H](CC(C)C)C(=O)N[C@@H](CCCCN)C(=O)N[C@@H](CC(N)=O)C(=O)N[C@@H](CO)C(=O)N[C@@H](CCCNC(=N)N)C(=O)N[C@@H](CO)C(=O)N[C@@H](CC(C)C)C(=O)NCC(=O)N[C@@H](CCC(=O)O)C(=O)N[C@@H](CC(N)=O)C(=O)N[C@@H](CC(=O)O)C(=O)N[C@@H](CC(=O)O)C(=O)NCC(=O)N[C@@H](CC(N)=O)C(=O)N[C@@H](CC(N)=O)C(=O)N[C@@H](CCC(=O)O)C(=O)N[C@@H](CC(=O)O)C(=O)N[C@@H](CC(N)=O)C(=O)N[C@@H](CCC(=O)O)C(=O)N[C@@H](CCCCN)C(=O)N[C@@H](CC(C)C)C(=O)N[C@@H](CCCNC(=N)N)C(N)=O)[C@@H](C)O)C(C)C)C(C)C` — result for ATPase activity: “decreased” (concentration not given; reference: control).
`COc1cc2c3c4c1Oc1cc5c(cc1O4)[C@H](Cc1ccc(OCCCN(C)C)c(c1)Oc1ccc(cc1)C[C@@H]3N(C)CC2)N(C)CC5` has a selectivity ratio of over 75 (reference: cytotoxicity over antimalarial IC50).
